Measured values collected from several papers.
A part holds a random share of what one study measured. Substitutions count along the parent as printed.

Block 1 — method: RNA Bind-n-Seq; molecule type: RNA; medium: in vitro; concentration: 365 nM; baseline: no-protein control; reading: higher = stronger binding
Target: RNA binding protein fox-1 homolog 2, RRM domain, GST-SBP tag (RBFOX2, Homo sapiens, UniProt O43251-10, residues 100-194)
Setting: natural RNA segment, single round, ends assumed
Residues (chain): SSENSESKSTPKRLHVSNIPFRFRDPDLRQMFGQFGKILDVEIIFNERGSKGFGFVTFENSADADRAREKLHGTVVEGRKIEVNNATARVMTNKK
Strand | RBNS enrichment (R)
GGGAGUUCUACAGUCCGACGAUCGUAGUGCUUCAUAUACUUUGGGGACGUAAUAUAGGAGAUAGUCUUACAUAAGUAAUAUAGAAACAGCCACAUUUGUCCAUUAAUGCAUAAGAAGCAAAGUAAAGUUUUCUUGGAAUUCUCGGGUGCCAA | 0.34
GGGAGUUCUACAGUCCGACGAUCUUAGGUUUAUACUUAGAUGGUUGUUCAGUAAGUUUAUAGAGUUGUGCAACUAUCACAACCAAUGUUAGAACAACUCAAAAAAAAAAAAAAUCUUAUUCCAGUUUGCAAUUUGGAAUUCUCGGGUGCCAA | 0.87
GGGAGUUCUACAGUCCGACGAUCCUCCAUGUUACCCUCCACUCCUUGGCCCAAACCUCUGAUGGAGAUAGACAUUGUUGGAGAAGUGGGCUGCCUUCCCCAAGUGGGGCACUGCUUAAGCACUUAUUCAGUGGUGGAAUUCUCGGGUGCCAA | 0.331
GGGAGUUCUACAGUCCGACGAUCCAUAGGCCCGGCAUGGCUGUCGCUGGACGCCAGCUGUGCACACCCAGCCACACCUGCUGCACGCCGCGUUAGUGUGCGGCUCCGGGCCUGAGCAUUCGCAAAGCUCGCUUUGGAAUUCUCGGGUGCCAA | 0.55
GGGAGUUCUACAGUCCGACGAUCGCGUGGGCCAGGCCGUAGGGGUGGCCGGGCCAGGGGUGGGCAAGGCCCUCGACCUAACAUCUGUGGCAUCUGCGGGAAGAGCUUUGGACGAGGCUCGACCCUGAUCCAGCUGGAAUUCUCGGGUGCCAA | 0.751
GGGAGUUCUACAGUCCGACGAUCAUUGAACACAUCUGCAAGUACAAUGUCUUGAUCCAAAACAGCAAAUAGGAAAUCAUGUUCUUCCCACCCUGCACCCCAUCUGCACCCCCACAGGGACCCAGUGCAGAAUCUGGAAUUCUCGGGUGCCAA | 2
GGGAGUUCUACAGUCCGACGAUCGGACUUUCACACCAUAAGGAGAUUUCUGUUUUUCUUUUUGGCUGUUAAUGCUUGUCUAUAACAUUGGAGCCAUCACAAGAAUGUUCAUUUGGAAUGAAGGCUGCAGGCACUGGAAUUCUCGGGUGCCAA | 0.561
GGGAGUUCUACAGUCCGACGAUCCUCCUCAGUCGCAGGGGUGGGAUGUGAGUCAUGCGGAUUAUCCACUCGCCACAGUUAUCAGCUGCCAUUGCUCCCUGUCUGUUUCCCCACUCUCUUAUUUGUGCAUUCGGUGGAAUUCUCGGGUGCCAA | 0.725

Block 2 — method: EMSA with sequencing; molecule type: double-stranded DNA, one strand shown; medium: in vitro; concentration: 10 and 20 nM; baseline: negative control set to 0; reading: higher = stronger binding
Target: Hepatocyte nuclear factor 3-alpha (Foxa1, Mus musculus, UniProt P35582, residues 1-468, full length assumed)
Setting: whole designed probe, mean of two concentrations, ends assumed
Target sequence (chain): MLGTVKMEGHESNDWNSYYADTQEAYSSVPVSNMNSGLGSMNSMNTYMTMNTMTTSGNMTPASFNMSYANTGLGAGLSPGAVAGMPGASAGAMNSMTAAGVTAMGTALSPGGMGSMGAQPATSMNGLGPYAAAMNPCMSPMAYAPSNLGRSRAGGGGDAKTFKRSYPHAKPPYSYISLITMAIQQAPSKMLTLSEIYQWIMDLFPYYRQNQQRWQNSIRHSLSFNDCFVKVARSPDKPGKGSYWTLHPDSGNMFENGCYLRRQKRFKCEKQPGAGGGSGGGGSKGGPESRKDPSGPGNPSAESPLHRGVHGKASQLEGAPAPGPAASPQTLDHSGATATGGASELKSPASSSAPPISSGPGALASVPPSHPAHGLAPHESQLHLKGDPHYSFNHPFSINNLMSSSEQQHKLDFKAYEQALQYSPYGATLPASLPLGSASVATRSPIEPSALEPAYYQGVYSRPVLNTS
Strand | normalised bound fraction
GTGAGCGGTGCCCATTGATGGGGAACATCTTCCCCCTCTTCCTTGCCCCACCAGCTCACCTACGGGGGTTATTTGCAGATAGGAAAATAAATAAAGCCGGCATTCGTTAACGCAGTTCACGCGCATACTGCTGTTTGCTCTGCATCTAACATGGTCCTTACGCGACGCCAGGCTCCGGGAGAGCAAAGCACCGTGTCAGGCGCATGATCCGGGGTGGCCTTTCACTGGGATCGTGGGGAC | 0.362 ratio
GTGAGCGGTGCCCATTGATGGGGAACGGTGCCTCCCCAGCCACCTCCGCCCCTGCCTGCTTCTGATTCAACAGCGCCGACCCTACAAAAACAGGGCCCGCCCATCTCCGAGGATGGCAAAGTCATCTGTGCGGGCACGCGGGCGGCCAGTCCCCGGCGGCCCGCGTGCGTCACGGGGGCGGATGCAGAGGACCAGGAAGTTCGCCGACGACGCGCCCGCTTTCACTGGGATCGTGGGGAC | -0.0625 ratio
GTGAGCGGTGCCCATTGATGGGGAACTGGGGTAAAGAGCCCTCACCCTGCCTGCCACACACTGGTAGTGTCAGATAACATTGAAGGGTGTTAGTTTAAAGGCTTCATGGACTCTATAATGTCAACAAAAGTGCTGTTAACTTTCTTCTGGGTCTCAGGCTCCTGATGTAGAGTCAGTGGAGCAACCCTGCCATCTGCTGTTATGCTGTTGATGTTGCTGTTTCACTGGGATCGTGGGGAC | 0.294 ratio
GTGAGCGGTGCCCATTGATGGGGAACGTACAAAATTGCACTCATTGCTCTCTTGCAGATGGCTTATTCTGGATCTCAGATAAAACTTATAAAGAAAACAAGTAGTATGGATTTATGCTAGATTACTTAGCCAGAGAAACAAAGGCAAATGCATATTCAGAGGTATACTGATAGCGATGTTTCCATGGAAACAAGGATGCTATCATAATATTTATTTCCATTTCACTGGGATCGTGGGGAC | 0.0351 ratio
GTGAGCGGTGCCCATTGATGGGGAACCAGCAAGGAATTTATAAGAAAATGATGTTGAGAAACCATTCTATTTCTCCAAGGAGCAGAGCCACCACACATTTACACAAGGATGTTCTTGCTTGTTTACACATACAACACAGTATGCTTCTAGGTGCAGTTGCATTCCAGGCAGCCCCGAGTGGCAGTCTCCCATTTTGGCATCTGTTGGCAGGAGGTTATCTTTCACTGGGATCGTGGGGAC | 0.318 ratio
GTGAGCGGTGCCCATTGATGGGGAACTTTCATCCCAAATGGTTGACTTTTCAGTATTTGAGCTAGACTTACCTTATGAATTATAGTGTGCATTCTCACTGAAAGTAGTCTCATTTTCTTGTTTACATTTATATCCATGTTTGTTGAATTGAGTACAGTTCAACAATGGTATTTCTTAGCTTAGCTTAAAAACTAAAATGGGATGATTCATTGAGTCTATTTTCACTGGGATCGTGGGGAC | 0.403 ratio
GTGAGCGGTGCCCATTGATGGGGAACGTAATGGGGGACTGAGGTTCACTCTATAAGAAAGTTGTCCTCATTATTGGGACCTGATGTAAACAAAAGGAGTGTAATCTTTGGGAGTTGTAATGTAATCTCTGGGAGTTACTGTAATCTTGCCATCATCATTCAAGGAAGGTAAACCCAGGAGCAAGAAGAGGAGCAATAAATGTGGGAATTTTGTTGAGAATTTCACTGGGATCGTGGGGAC | 0.164 ratio
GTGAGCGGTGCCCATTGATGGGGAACATCTTCCCCCTCTTCCTTGCCCCACCAGCTCACCTACGGGGGTTATTTGCACAAAGGAAAATAAATAAAGCCGGCATTCGTTAACGCAGTTCTGGCGCAAACTGCTGTTTGCTCTGCATCTAACATGGTCCTTACGCGAGGCGTGGCTCCGGGAGAGCAAAGCACCGTGTCAGGCGCATGATCCGGGCTCGCCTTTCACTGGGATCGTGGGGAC | 0.396 ratio

Block 3 — target: UBE2L6 UBC core domain (UniProt O14933); method: yeast two-hybrid; medium: yeast; setting: mostly zero background; baseline: not given; reading: higher = stronger interaction
B1: MARCHF2 RING domain (UniProt Q9P0N8); chain RLLSTVIRALDTPSDGPFCRICHEGANGECLLSPCGCTGTLGAVHKSCLEKWLSSSNTSYCELCHTEFAVEKRPRPLTEWL
B2: TRIM68 RING domain (UniProt Q6AZZ1); chain LVEAIVEEVACPICMTFLREPMSIDCGHSFCHSCLSGLWEIPGESQNWGYTCPLCRAPVQPRNLRP
B3: RNF10 RING domain (UniProt Q8N5U6); chain VRICSHEVPSCPICLYPPTAAKITRCGHIFCWACILHYLSLSEKTWSKCPICYSSVHKKDLKS
B4: RNF17 RING domain (UniProt Q9BXT8); chain SQPWGAAEIQCTRCGRRVSRSSGHHCELQCGHAFCELCLLMTEECTTIICPDCEVATAVNTRQR
B5: RNF115 RING domain (UniProt Q9Y4L5); chain TQEQVDMGLECPVCKEDYTVEEEVRQLPCNHFFHSSCIVPWLELHDTCPVCRKSLNGEDSTR
Construct (chain): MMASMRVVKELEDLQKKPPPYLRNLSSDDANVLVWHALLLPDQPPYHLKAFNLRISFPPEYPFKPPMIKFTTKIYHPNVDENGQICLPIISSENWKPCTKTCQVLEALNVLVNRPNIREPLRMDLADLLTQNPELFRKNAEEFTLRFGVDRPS
Sequence | lacZ reporter activity
FLSKVEETFQCICCQELVFRPITTVCQHNVCKDCLDRSFRAQVFSCPACRYDLGRSYAMQ (UHRF1 RING domain (UniProt Q96T88)) | 0
B1 (MARCHF2 RING domain) | 0
MEEMEEELKCPVCGSFYREPIILPCSHNLCQACARNILVQTPESESPQSHRAAGSGVSDY (TRIM9 RING domain (UniProt Q9C026)) | 0
KITELNPHLMCALCGGYFIDATTIVECLHSFCKTCIVRYLETNKYCPMCDVQVHKTRPLL (PCGF2 RING domain (UniProt P35227)) | 0
B2 (TRIM68 RING domain) | 0
B3 (RNF10 RING domain) | 0
B4 (RNF17 RING domain) | 0
B5 (RNF115 RING domain) | 0

Further values, each from its own experiment
Starting sequence: viral docking peptide; YKVKRRLVFGADD; partner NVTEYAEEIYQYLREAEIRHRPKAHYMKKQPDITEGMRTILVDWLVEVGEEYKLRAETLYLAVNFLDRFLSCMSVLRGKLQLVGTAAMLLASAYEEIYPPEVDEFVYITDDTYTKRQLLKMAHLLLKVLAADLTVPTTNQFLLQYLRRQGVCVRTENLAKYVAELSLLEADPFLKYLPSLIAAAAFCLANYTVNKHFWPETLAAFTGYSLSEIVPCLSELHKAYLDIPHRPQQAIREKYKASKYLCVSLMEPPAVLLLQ
Change | target | assay | test system | setting | how to read | measurement | value
YKVKRREVFGADD [L7E] | CCNA1, cyclin fold, Cln2 fusion (human) | yeast growth competition, sequencing | yeast | strong parent motif | baseline: not given, higher = stronger binding | normalised enrichment score | 0.0904

Some of these lines once more (block 1):
Strand | RBNS enrichment (R)
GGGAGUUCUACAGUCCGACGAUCGCGUGGGCCAGGCCGUAGGGGUGGCCGGGCCAGGGGUGGGCAAGGCCCUCGACCUAACAUCUGUGGCAUCUGCGGGAAGAGCUUUGGACGAGGCUCGACCCUGAUCCAGCUGGAAUUCUCGGGUGCCAA | 0.751
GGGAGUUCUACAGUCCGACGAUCAUUGAACACAUCUGCAAGUACAAUGUCUUGAUCCAAAACAGCAAAUAGGAAAUCAUGUUCUUCCCACCCUGCACCCCAUCUGCACCCCCACAGGGACCCAGUGCAGAAUCUGGAAUUCUCGGGUGCCAA | 2
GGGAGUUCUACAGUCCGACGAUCGGACUUUCACACCAUAAGGAGAUUUCUGUUUUUCUUUUUGGCUGUUAAUGCUUGUCUAUAACAUUGGAGCCAUCACAAGAAUGUUCAUUUGGAAUGAAGGCUGCAGGCACUGGAAUUCUCGGGUGCCAA | 0.561
